Measured values of several laboratories.
Compare with care: the assays were run in different laboratories. Numbers after ± are the reported error.
ABCG2: Broad substrate specificity ATP-binding cassette transporter ABCG2 (ABCG2, Homo sapiens, UniProt Q9UNQ0)
Chain of UniProt Q9UNQ0 (whole entry, looked up): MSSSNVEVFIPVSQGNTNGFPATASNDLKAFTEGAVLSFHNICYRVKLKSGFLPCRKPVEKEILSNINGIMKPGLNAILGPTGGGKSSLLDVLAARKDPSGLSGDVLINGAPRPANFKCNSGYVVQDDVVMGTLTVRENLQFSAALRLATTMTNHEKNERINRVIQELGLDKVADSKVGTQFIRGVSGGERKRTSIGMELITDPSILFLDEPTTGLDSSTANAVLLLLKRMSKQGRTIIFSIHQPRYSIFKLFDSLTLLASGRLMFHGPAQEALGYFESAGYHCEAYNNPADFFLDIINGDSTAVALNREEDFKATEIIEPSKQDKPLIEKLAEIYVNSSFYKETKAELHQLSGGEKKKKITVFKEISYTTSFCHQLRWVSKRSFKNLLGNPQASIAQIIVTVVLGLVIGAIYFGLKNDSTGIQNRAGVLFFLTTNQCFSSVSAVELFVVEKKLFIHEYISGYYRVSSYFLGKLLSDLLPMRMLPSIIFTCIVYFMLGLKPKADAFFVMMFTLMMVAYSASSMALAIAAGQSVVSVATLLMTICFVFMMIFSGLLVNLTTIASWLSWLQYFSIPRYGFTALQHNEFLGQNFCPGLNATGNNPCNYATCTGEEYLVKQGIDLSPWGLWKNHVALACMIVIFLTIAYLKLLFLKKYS
UGT1A1: UDP-glucuronosyltransferase 1A1 (UGT1A1, Homo sapiens, UniProt P22309)
Chain of UniProt P22309 (whole entry, looked up): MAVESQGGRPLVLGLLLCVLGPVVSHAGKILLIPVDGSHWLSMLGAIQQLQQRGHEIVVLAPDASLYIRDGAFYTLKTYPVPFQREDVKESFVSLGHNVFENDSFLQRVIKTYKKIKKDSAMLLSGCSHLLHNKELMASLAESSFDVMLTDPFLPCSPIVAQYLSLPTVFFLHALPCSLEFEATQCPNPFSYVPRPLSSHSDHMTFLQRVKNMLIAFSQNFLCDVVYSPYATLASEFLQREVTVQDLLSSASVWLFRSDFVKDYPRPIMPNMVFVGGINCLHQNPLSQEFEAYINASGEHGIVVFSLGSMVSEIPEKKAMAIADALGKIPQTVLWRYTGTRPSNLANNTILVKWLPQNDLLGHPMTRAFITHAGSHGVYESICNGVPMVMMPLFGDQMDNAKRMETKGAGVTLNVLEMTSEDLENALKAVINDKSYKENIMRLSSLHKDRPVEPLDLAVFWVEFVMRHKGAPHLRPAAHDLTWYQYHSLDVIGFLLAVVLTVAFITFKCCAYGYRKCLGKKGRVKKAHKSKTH
CYP2A6: Cytochrome P450 2A6 (CYP2A6, Homo sapiens, UniProt P11509)
Chain of UniProt P11509 (whole entry, looked up): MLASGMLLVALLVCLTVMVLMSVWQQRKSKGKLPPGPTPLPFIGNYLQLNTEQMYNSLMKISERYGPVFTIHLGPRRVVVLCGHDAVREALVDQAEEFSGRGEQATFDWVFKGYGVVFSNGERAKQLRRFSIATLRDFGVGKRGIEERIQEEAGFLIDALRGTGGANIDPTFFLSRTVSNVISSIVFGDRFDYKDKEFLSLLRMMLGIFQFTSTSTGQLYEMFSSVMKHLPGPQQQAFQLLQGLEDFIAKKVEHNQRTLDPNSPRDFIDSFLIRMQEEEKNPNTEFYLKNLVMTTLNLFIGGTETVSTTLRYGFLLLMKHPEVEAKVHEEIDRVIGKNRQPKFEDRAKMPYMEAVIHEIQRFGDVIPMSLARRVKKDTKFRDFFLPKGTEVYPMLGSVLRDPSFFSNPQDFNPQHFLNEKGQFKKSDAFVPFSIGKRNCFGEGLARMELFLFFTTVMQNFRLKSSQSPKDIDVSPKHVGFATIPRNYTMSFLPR
Abcb1a: ATP-dependent translocase ABCB1 (Abcb1a, Mus musculus, UniProt P21447)
Chain of UniProt P21447 (whole entry, looked up): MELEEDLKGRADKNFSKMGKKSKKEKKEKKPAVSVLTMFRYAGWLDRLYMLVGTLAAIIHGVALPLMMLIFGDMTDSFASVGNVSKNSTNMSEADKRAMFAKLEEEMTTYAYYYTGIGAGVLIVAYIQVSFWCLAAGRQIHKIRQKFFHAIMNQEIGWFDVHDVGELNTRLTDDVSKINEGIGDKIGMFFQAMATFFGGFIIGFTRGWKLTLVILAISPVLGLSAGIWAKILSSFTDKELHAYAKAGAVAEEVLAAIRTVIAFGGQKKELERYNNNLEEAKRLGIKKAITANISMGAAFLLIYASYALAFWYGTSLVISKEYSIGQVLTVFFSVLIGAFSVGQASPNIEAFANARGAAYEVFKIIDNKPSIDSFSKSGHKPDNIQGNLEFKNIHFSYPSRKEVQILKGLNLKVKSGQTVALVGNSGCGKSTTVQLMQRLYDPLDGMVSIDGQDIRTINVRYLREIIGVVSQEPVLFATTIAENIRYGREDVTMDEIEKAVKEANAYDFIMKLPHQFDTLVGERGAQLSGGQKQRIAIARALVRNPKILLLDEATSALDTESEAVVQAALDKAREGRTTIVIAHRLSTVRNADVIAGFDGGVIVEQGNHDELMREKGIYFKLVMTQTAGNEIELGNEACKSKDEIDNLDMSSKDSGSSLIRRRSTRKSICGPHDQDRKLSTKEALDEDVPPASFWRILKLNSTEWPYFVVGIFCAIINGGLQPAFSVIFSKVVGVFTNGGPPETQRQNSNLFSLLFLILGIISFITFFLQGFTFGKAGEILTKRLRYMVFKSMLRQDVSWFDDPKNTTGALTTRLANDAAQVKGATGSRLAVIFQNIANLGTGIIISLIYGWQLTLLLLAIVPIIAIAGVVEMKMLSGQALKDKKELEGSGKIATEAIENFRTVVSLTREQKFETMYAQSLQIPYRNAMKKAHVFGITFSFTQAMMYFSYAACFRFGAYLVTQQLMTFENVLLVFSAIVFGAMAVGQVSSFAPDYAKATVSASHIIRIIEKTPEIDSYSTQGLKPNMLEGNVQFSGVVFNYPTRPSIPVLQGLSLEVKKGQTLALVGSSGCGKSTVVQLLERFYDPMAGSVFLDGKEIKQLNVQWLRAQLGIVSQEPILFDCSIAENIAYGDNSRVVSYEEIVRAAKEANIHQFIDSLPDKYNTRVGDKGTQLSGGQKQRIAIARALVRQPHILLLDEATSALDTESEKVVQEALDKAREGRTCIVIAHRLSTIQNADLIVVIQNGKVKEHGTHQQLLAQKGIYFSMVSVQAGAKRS
Chain of UniProt Q12809 (whole entry, looked up): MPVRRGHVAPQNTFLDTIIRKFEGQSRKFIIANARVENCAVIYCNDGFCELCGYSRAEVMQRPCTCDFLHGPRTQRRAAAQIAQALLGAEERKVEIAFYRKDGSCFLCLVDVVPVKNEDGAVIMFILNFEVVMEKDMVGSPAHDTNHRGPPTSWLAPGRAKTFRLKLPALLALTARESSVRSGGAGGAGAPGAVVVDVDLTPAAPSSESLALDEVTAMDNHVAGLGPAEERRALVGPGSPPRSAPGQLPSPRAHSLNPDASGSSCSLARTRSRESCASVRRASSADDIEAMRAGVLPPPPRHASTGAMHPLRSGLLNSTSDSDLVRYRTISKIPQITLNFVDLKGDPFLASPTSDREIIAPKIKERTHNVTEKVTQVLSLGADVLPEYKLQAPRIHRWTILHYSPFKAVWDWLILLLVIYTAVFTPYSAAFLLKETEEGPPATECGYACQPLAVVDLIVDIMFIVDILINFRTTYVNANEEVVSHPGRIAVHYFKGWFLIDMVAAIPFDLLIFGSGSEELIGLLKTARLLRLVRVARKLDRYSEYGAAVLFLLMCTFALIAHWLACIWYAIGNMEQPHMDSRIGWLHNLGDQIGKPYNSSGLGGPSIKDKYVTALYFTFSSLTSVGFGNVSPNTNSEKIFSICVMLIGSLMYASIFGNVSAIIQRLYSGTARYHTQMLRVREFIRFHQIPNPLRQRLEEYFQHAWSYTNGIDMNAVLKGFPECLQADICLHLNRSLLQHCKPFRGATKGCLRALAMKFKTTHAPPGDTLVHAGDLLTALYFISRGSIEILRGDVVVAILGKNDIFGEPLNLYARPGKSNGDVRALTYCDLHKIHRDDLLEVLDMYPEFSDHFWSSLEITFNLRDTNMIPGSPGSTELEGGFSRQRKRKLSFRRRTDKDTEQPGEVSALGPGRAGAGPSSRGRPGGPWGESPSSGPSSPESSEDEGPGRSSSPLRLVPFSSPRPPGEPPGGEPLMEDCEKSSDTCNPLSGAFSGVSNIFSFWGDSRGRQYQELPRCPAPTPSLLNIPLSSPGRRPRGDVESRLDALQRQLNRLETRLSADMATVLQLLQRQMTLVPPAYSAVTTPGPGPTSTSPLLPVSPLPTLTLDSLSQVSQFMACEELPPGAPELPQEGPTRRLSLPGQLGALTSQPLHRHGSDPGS
Chain of UniProt P49888 (whole entry, looked up): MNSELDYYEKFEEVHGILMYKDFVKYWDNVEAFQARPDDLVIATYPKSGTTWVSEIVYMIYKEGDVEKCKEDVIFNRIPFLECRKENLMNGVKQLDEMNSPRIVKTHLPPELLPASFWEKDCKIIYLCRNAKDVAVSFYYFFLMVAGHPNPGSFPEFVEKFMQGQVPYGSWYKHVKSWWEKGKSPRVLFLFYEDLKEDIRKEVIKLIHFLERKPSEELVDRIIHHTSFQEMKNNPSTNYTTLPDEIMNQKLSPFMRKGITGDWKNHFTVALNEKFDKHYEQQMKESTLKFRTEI
Chain of UniProt O35084 (whole entry, looked up): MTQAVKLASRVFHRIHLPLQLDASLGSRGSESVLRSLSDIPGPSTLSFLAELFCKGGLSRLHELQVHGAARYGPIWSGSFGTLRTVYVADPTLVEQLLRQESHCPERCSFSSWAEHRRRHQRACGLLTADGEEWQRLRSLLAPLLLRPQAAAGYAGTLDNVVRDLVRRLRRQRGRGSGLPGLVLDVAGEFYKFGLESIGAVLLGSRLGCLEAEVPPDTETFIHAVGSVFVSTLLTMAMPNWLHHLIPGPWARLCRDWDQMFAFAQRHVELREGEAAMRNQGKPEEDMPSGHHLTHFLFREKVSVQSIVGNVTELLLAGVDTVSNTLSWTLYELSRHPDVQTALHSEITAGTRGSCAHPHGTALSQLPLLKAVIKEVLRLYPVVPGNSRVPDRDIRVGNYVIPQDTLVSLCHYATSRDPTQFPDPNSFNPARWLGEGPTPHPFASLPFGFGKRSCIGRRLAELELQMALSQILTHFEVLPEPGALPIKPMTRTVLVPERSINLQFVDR

| Molecule | target | test | test system | conditions | how to read | endpoint | result |
| --- | --- | --- | --- | --- | --- | --- | --- |
| O=C(c1ccco1)N1CCN(c2cc(-c3ccccc3)nc3cc(-c4cccc(Cl)c4)nn23)CC1 | ABCG2 | JC-1 dye efflux, inhibitor, flow cytometry | ABCG2-overexpressing cells | with: JC-1 1 µM |  | IC50 | 960 ± 370 nM |
| Nn1nnc2ccccc21 | cytochrome P450 (human intestinal microsomes) | M1 formation, inhibitor | pooled human intestinal microsomes | concentration not given, 5 min, with: 3 µM substrate |  | inhibition | 86% |
| O=C(NCCCN1CCOCC1)c1cnn2c(-c3ccccc3)cc(-c3ccccc3)nc12 | ABCG2 | JC-1 dye efflux, inhibitor, flow cytometry | ABCG2-overexpressing cells | with: JC-1 1 µM |  | IC50 | 840 nM |
| C=CC(=O)N1CCC([C@@H]2CCNc3c(C(N)=O)c(-c4ccc(Oc5ccccc5)cc4)nn32)CC1 | ABCG2 | transport, item: Lucifer Yellow uptake | membrane vesicles | 5 µM | reference: vehicle | remaining activity | 83.3% |
| Cc1cc(N2CCN(C(=O)c3ccco3)CC2)n2nc(-c3cccc(Cl)c3)cc2n1 | ABCG2 | JC-1 dye efflux, inhibitor, flow cytometry | ABCG2-overexpressing cells | with: JC-1 1 µM |  | IC50 | 2780 ± 820 nM |
| CC/C=C\C/C=C\C/C=C\CCCCCCCC(=O)O | UGT1A1 | enzyme activity, inhibitor |  |  |  | IC50 | 26100 nM |
| COCC(=O)O[C@]1(CCN(C)CCCc2nc3ccccc3[nH]2)CCc2cc(F)ccc2[C@@H]1C(C)C | CYP3A, mouse | inhibitor, item: 6β-hydroxytestosterone | liver microsomes | 20 min, pH 7.5, with: testosterone 100 µM |  | Ki | 120 nM |
| liraglutide | α1-acid glycoprotein human | equilibrium dialysis |  | 10 nM, 4 to 5 h, pH 7.4, 37 °C, ratio 50:1 (98% bound), with: AAGP 1 mg/mL |  | protein binding | 98.7% |
| COc1ccc([C@@H]2CC(=O)c3c(O)cc(O)cc3O2)cc1O | Sulfotransferase 1E1 (SULT1E1, Homo sapiens, UniProt P49888) | substrate |  | 10 µM |  | specific activity | 1.51 ± 0.02 nmol/min/mg |
| Cc1coc2c1CC[C@@H](C)C2 | CYP2A6 | inactivator |  | 5 µM, 10 min, pH 7.4, 30 °C, with: NADPH, semicarbazide 10 mM |  | remaining activity | 42 ± 3% |
| O=c1c(O)c(-c2ccc(O)cc2)oc2cc(O)ccc12 | UGT1A1 | glucuronidation rate, inhibitor |  | 5 µM, with: 3-hydroxyflavone substrate | reference: no inhibitor | inhibition | 93.9 ± 2.2% |
| O=C(c1ccoc1)N1CCN(c2cc(-c3ccco3)nc3cc(-c4cccc(Cl)c4)nn23)CC1 | ABCG2 | JC-1 dye efflux, inhibitor, flow cytometry | ABCG2-overexpressing cells | with: JC-1 1 µM |  | IC50 | 2550 nM |
| CC(=O)c1cc(C(=O)N[C@@H](C)Cn2ccc(-c3ccc(C#N)c(Cl)c3)n2)[nH]n1 | Solute carrier organic anion transporter family member 1B3 (SLCO1B3, Homo sapiens, UniProt Q9NPD5) | uptake, inhibitor | HEK (transfected) | 1 h preincubation, with: pravastatin substrate |  | IC50 | 14200 nM |
| O=C1NC(c2ccccc2)(c2ccccc2)C(=O)N1COP(=O)(O)O | alkaline phosphatase |  | human small intestinal microtissues | 10 µM, 2 h, apical dosing, apical to basolateral |  | parent drug recovery | 1.37% |
| CS(=O)(=O)CCNCc1ccc(-c2ccc3ncnc(Nc4ccc(OCc5cccc(F)c5)c(Cl)c4)c3c2)o1 | ABCB1 and ABCG2 | IVIVE scaling | human |  |  | BBB passive plus efflux clearance | 74.2 mL/min |
| CC[C@H](C)[C@H](NC(=O)[C@H](CCC(=O)O)NC(=O)[C@H](CO)NC(=O)[C@@H](NC(=O)[C@@H](N)CO)C(C)C)C(=O)N[C@@H](CCC(N)=O)C(=O)N[C@@H](CC(C)C)C(=O)N[C@@H](CCSC)C(=O)N[C@@H](Cc1cnc[nH]1)C(=O)N[C@@H](CC(N)=O)C(=O)N[C@@H](CC(C)C)C(=O)NCC(=O)N[C@@H](CCCCN)C(=O)N[C@@H](Cc1cnc[nH]1)C(=O)N[C@@H](CC(C)C)C(=O)N[C@@H](CC(N)=O)C(=O)N[C@@H](CO)C(=O)N[C@@H](CCSC)C(=O)N[C@@H](CCC(=O)O)C(=O)N[C@@H](CCCN=C(N)N)C(=O)N[C@H](C(=O)N[C@@H](CCC(=O)O)C(=O)N[C@@H](Cc1c[nH]c2ccccc12)C(=O)N[C@@H](CC(C)C)C(=O)N[C@@H](CCCN=C(N)N)C(=O)N[C@@H](CCCCN)C(=O)N[C@@H](CCCCN)C(=O)N[C@@H](CC(C)C)C(=O)N[C@@H](CCC(N)=O)C(=O)N[C@@H](CC(=O)O)C(=O)N[C@H](C(=O)N[C@@H](Cc1cnc[nH]1)C(=O)N[C@@H](CC(N)=O)C(=O)N[C@@H](Cc1ccccc1)C(=O)O)C(C)C)C(C)C | trypsin (bovine pancreas) | proteolytic degradation, HPLC-UV |  | 0.5 mg/mL, 1.0 h, pH 6.5, 37 °C, with: trypsin with soybean trypsin inhibitor |  | remaining intact compound | 77 ± 1% |
| O=C(Nc1cnn2ccc(N3CCC[C@@H]3c3cc(F)ccc3F)nc12)N1CC[C@H](O)C1 | Abcb1a |  | LLC-PK1 cells expressing mouse Abcb1a | 3.5 h, with: zosuquidar 1 µM | apical to basolateral | Papp | 5.15 ± 0.21 ×10⁻⁶ cm/s |
| C#Cc1cc(N2CCN(C(=O)c3ccoc3)CC2)n2nc(-c3cccc(Cl)c3)cc2n1 | ABCG2 | JC-1 dye efflux, inhibitor, flow cytometry | ABCG2-overexpressing cells | with: JC-1 1 µM |  | IC50 | 2360 ± 530 nM |
| C[C@@H](Oc1cc(-c2cnn(C3CCNCC3)c2)cnc1N)c1c(Cl)ccc(F)c1Cl | Abcb1a |  | LLC-PK1 cells expressing mouse Abcb1a | 3.5 h, with: zosuquidar 1 µM | apical to basolateral | Papp | 5.86 ± 1.56 ×10⁻⁶ cm/s |
| O=C(O)[C@H]1O[C@@H](Oc2ccc3c(=O)c(O)c(-c4ccc(O)cc4)oc3c2)[C@H](O)[C@@H](O)[C@@H]1O | UGT1A1 | glucuronidation, substrate, Supersomes |  |  |  | Km | 1.3 ± 0.56 µM |
| COc1ccc(-c2cc(N3CCN(C(=O)c4ccoc4)CC3)n3nc(-c4ccccc4)cc3n2)cc1 | ABCG2 | JC-1 dye efflux, inhibitor, flow cytometry | ABCG2-overexpressing cells | with: JC-1 1 µM |  | IC50 | 2370 ± 1800 nM |
| C=C1CC[C@H](O)C/C1=C/C=C1\CCC[C@@]2(C)[C@H]1CC[C@@H]2[C@@](C)(O)CCCC(C)C | 25-hydroxyvitamin D-1 alpha hydroxylase, mitochondrial (Mus musculus, UniProt O35084) | substrate | phospholipid vesicles | 1 h, 0.025 mol per mol phospholipid, 0.8 µM enzyme |  | number of products | 1 |
| COc1cccc(-c2cc(N3CCN(C(=O)c4ccoc4)CC3)n3nc(-c4cccc(Cl)c4)cc3n2)c1 | ABCG2 | JC-1 dye efflux, inhibitor, flow cytometry | ABCG2-overexpressing cells | with: JC-1 1 µM |  | IC50 | 1140 ± 540 nM |
| CCn1c2ccccc2c2cc(CNCCCCNC(=O)c3ccc(-c4cccnc4)cc3)ccc21 | Voltage-gated inwardly rectifying potassium channel KCNH2 (KCNH2, Homo sapiens, UniProt Q12809) | potassium current, inhibitor, automated patch clamp | CHO cells expressing hERG |  |  | IC50 | 2620 nM |
| O=C1CC(c2ccccc2)Oc2ccccc21 (stereo not drawn) | CYP2A6 | substrate, item: hydroxy metabolite M2 formation |  | reconstituted system |  | Km | 41 µM |
| CCN(CC)C(=S)S | cytochrome P450, rat |  | rat liver microsomes | 50 µM, 60 min, pH 7.4 |  | inhibition | 54% |
| CC(C)(C)c1cc(N2CCN(C(=O)c3ccoc3)CC2)n2nc(-c3ccccc3)cc2n1 | ABCG2 | JC-1 dye efflux, inhibitor, flow cytometry | ABCG2-overexpressing cells | with: JC-1 1 µM |  | IC50 | 11500 nM |
